Experimental data collected from several papers.
Cell line: SNB-19

Structure (SMILES) | method | concentration | time | setting | relative to | endpoint | result
Cc1cc(C)n(-c2nc(-c3ccc(Cl)cc3)c3c(NC(=O)c4ccccc4)nnc-3[nH]2)n1 | SRB | 10 µM | – | NCI60 single-dose screen | untreated | cell growth | 86.9%
CCCCN1CCN(c2ccc3[nH]c(-c4ccc5[nH]c(-c6ccc(OCC)cc6)nc5c4)nc3c2)CC1 | SRB | 10 µM | 48 h | – | – | growth percent | 85.3%
Cc1cc(=O)[nH]c(=O)n1Cc1cn(-c2cc3ccccc3oc2=O)nn1 | – | 10 µM | – | CNS cancer cell line, NCI60 | – | growth percentage | 102%
C#C[C@@]1(O)[C@@H](CO)O[C@@H](n2cc(Cl)c3c(N)ncnc32)[C@@H]1O | SRB | – | – | NCI-60 screen | – | TGI | 0.294 µM
CCCCN1CCN(c2ccc3nc(-c4ccc5nc(-c6cc(OC)ccc6OC)[nH]c5c4)[nH]c3c2)CC1 | SRB | 10 µM | 48 h | – | – | growth percent | 103%
O=C(Nc1nnc2n3c(=S)[nH][nH]c3nc(-c3ccc(Cl)cc3)c1-2)c1ccccc1 | SRB | 10 µM | – | NCI60 single-dose screen | untreated | cell growth | 75.6%
Cn1cncc1C1=CN(c2ncnc3[nH]cnc23)CCS1 | – | – | – | CNS cancer | – | GI50 | 44.7 µM
O=C(Nc1nnc2n3c(nc(-c4ccc(Cl)cc4)c1-2)SCC3=O)c1ccccc1 | SRB | 10 µM | – | NCI60 single-dose screen | untreated | cell growth | 94.3%
CCCN1CCN(c2ccc3[nH]c(-c4ccc5[nH]c(-c6ccc(C(F)(F)F)cc6)nc5c4)nc3c2)CC1 | SRB | 10 µM | 48 h | – | – | growth percent | -93.8%
O=c1ccn(Cc2cn(-c3cc4ccccc4oc3=O)nn2)c(=O)[nH]1 | – | 10 µM | – | CNS cancer cell line, NCI60 | – | growth percentage | 101%
O=C1NC(=NCc2cccs2)S/C1=C\c1ccc2ncccc2c1 | MTS | – | – | NCI60 panel | – | IC50 | > 10 µM
COc1ccc(OC)c(-c2nc3ccc(-c4nc5ccc(N6CCN(C)CC6)cc5[nH]4)cc3[nH]2)c1 | SRB | 10 µM | 48 h | – | – | growth percent | 103%
CCCC(CCC)C(=O)OCc1cn(-c2c3ccccc3nc3ccccc23)nn1 | – | 10 µM | – | CNS cancer cell line, NCI60 | – | growth percentage | 96.3%
CCOc1ccc(-c2nc3cc(-c4nc5cc(N6CCN(C)CC6)ccc5[nH]4)ccc3[nH]2)cc1OCC | SRB | 10 µM | 48 h | – | – | growth percent | 8.93%
CCN(CC)c1ccc(C=NNC(=O)CSc2nc3ccccc3c(=O)n2Cc2ccc(S(N)(=O)=O)cc2)c(O)c1 | NCI five-dose screen | – | – | – | – | TGI | > 100 µM
Cc1cc(-c2ccccc2)n(-c2nc(-c3ccc(Cl)cc3)c3c(NC(=O)c4ccccc4)nnc-3[nH]2)n1 | SRB | 10 µM | – | NCI60 single-dose screen | untreated | cell growth | 90.5%
O=c1ccn(Cc2cn(-c3c4ccccc4nc4ccccc34)nn2)c(=O)[nH]1 | – | 10 µM | – | CNS cancer cell line, NCI60 | – | growth percentage | 94.1%
CN1CCN(c2ccc3[nH]c(-c4ccc5[nH]c(-c6ccc(C(F)(F)F)cc6)nc5c4)nc3c2)CC1 | SRB | 10 µM | 48 h | – | – | growth percent | 74.2%
CCOC(=O)CSc1nc(-c2ccc(Cl)cc2)c2c(NC(=O)c3ccccc3)nnc-2[nH]1 | SRB | 10 µM | – | NCI60 single-dose screen | untreated | cell growth | 91.2%

For quick reference, copied from above:
Structure (SMILES) | method | concentration | time | setting | relative to | endpoint | result
CCCCN1CCN(c2ccc3nc(-c4ccc5nc(-c6cc(OC)ccc6OC)[nH]c5c4)[nH]c3c2)CC1 | SRB | 10 µM | 48 h | – | – | growth percent | 103%
CN1CCN(c2ccc3[nH]c(-c4ccc5[nH]c(-c6ccc(C(F)(F)F)cc6)nc5c4)nc3c2)CC1 | SRB | 10 µM | 48 h | – | – | growth percent | 74.2%
